Assay results pooled from the literature.
Lines come from different studies, so protocols differ. “And” joins repeats or separate records; there may be more than shown. Numbers after ± are the reported error. ≈ marks a conversion by molar mass, not a printed value.

| SMILES | test | system | conditions | endpoint | value |
| --- | --- | --- | --- | --- | --- |
| CC(C)CC(=O)OC[C@H]1O[C@@](C#N)(c2ccc3c(N)ncnn23)[C@H](O)[C@@H]1O | – | rat whole blood | 5 µM, 30 min | remaining compound | 0% |
| COc1cc2c(Oc3ccc4[nH]c(C)cc4c3F)ccnc2cc1OCC1(N)CC1 | – | paediatric refractory sarcoma patients | 12 mg | ALP elevation incidence | 45.5% |
| COc1ncccc1-c1cnn2ccc(N3CCN(C(=O)OC(C)C)CC3)nc12 | – | mouse, open field test, plasma | oral, 10 mg/kg, 60 min | drug concentration | 3.5 µM |
| C=CC(=O)N1CC[C@H](n2nc(C#Cc3cc(OC)cc(OC)c3)c3c(N)ncnc32)C1 | – | patients with advanced solid tumours | oral, dose not given, Stomatitis, any grade, QD, together with: phosphate-binding therapy | adverse drug reaction incidence | 12.5% |
| C=CCNc1c(O)cc2c(O)c1C[C@@H](C)C[C@H](OC)[C@H](O)[C@@H](C)/C=C(\C)[C@H](OC(N)=O)[C@@H](OC)/C=C\C=C(/C)C(=O)N2 | – | unresectable or metastatic STS, GIST, other | intravenous, 150 mg/m^2 | patients with arthralgia TEAE | 0% |
| CN1CCN(S(=O)(=O)c2cc([N+](=O)[O-])ccc2N(CCOS(C)(=O)=O)CCOS(C)(=O)=O)CC1 | – | naive female NSG mice, plasma | intraperitoneal, 25 mg/kg | elimination rate constant | 0.000547 s⁻¹ |
| CN1CCN(c2cccc3c2CCN(C(=O)/C=C/c2c(-n4cnnn4)ccc(Cl)c2F)[C@@H]3C(=O)Nc2ccc(C(=O)O)cc2)C(=O)C1 | – | healthy human subjects | intravenous infusion, 4 mg/h, 2 h | deaths | 0% |
| CCOC(=O)C(CCCOC)NC(=O)c1ccc(C2CC2)c(Cc2ccc(F)cc2)n1 (centres unmarked) | – | aqueous buffer with DMSO | – | kinetic solubility | 0.6 µg/mL (≈ 1.4 µM) |
| O=C(O)CCC(CP(=O)(O)O)C(=O)O (centres unmarked) | – | rat plasma | 8 µg/mL, freeze-thaw cycle 3 at -80 °C | measured concentration | 7.66 ± 0.33 µg/mL |
| CC(=O)c1c(C)c2cnc(Nc3ccc(C4CCN(CCS(C)(=O)=O)CC4)cn3)nc2n(C2CCCC2)c1=O | – | human patients, plasma | oral, 100 mg twice daily, day 21 multiple doses | Tmax | 2 h |
| CO[C@H]1C[C@@H]2CC[C@@H](C)[C@@](O)(O2)C(=O)C(=O)N2CCCC[C@H]2C(=O)O[C@H]([C@H](C)C[C@@H]2CC[C@@H](OC(=O)NCCOCCOCCOCCOCCOCCOCCOCCOCCC(=O)N3CCc4cc(Cn5nc(-c6ccc7oc(N)nc7c6)c6c(N)ncnc65)ccc4C3)[C@H](OC)C2)C[C@@H](O)[C@H](C)/C=C(\C)[C@@H](O)[C@@H](OC)C(=O)[C@H](C)C[C@H](C)/C=C/C=C/C=C/1C | phase 1 dose escalation, refers to: gastric haemorrhage | advanced solid tumour patients | intravenous, 8 mg weekly, grade ≥3 | dose-reducing adverse events | 0% |
| O=c1ccc2ccc3occc3c2o1 | post-procedure stability | rat plasma | 8 ng/mL, 3 h, room temperature | accuracy | 102% |
| COc1cccc(Oc2ccccc2NC(=O)CNC(=O)c2cccc3ccccc23)c1 | – | esterase-deficient SCID mice, male | oral, 40 mg/kg/day, 14 days, toxicity study | serum sodium | 158 mmol/L and 164 mmol/L and 156 mmol/L |
| O=C(c1ccc(F)c(F)c1Nc1ccc(I)cc1F)N1CC(O)([C@@H]2CCCCN2)C1 | – | human patients | oral, 1 mg/kg, dose expansion | fatal adverse events | 0% |
| N[C@@H]1c2ccccc2OC12CCN(c1cnc3c(N4CCCc5ncccc54)n[nH]c3n1)CC2 | – | advanced metastatic solid tumour patients | oral, 75 mg once daily, cycle 1, 21 days | dose-limiting toxicity | 14.3% |
| C[C@@H]1NC(=O)[C@H](CCCCNC(=O)CO/N=C/C(=O)NCCCC[C@@H]2NC(=O)[C@@H](Cc3ccccc3)NC(=O)[C@H](CC(=O)O)NC(=O)CNC(=O)[C@H](CCCNC(=N)N)NC2=O)NC(=O)CNC(=O)[C@@H]2CCCN2C(=O)[C@H](CCCCNC(=O)CO/N=C/C(=O)NCCCC[C@@H]2NC(=O)[C@@H](Cc3ccccc3)NC(=O)[C@H](CC(=O)O)NC(=O)CNC(=O)[C@H](CCCNC(=N)N)NC2=O)NC(=O)[C@H](CCCCNC(=O)CN2CCCNCCNCCCNCC2)NC(=O)[C@H](CCCCNC(=O)CO/N=C/C(=O)NCCCC[C@@H]2NC(=O)[C@@H](Cc3ccccc3)NC(=O)[C@H](CC(=O)O)NC(=O)CNC(=O)[C@H](CCCNC(=N)N)NC2=O)NC(=O)CNC(=O)[C@@H]2CCCN2C(=O)[C@H](CCCCNC(=O)CO/N=C/C(=O)NCCCC[C@@H]2NC(=O)[C@@H](Cc3ccccc3)NC(=O)[C@H](CC(=O)O)NC(=O)CNC(=O)[C@H](CCCNC(=N)N)NC2=O)NC1=O [copper-64 labelled] | biodistribution after PET | mouse, U-87 MG tumour xenograft, tumor | intravenous, 24 h | tissue uptake | 4.47 ± 0.37 %ID/g |
| CCc1ccc(CC/C=C/c2ccc3c(c2)C(=O)CC3)cc1 | – | Sprague-Dawley rat, female | oral, 120 mg/kg/day, 14 days | Calcium | 2.54 mM |
| NC(=O)[C@H]1CCN(c2ncnc(N)c2F)C[C@@H]1N1CCC[C@@H](Nc2cc(Cl)cc(C(F)(F)F)c2)C1=O | – | B-cell malignancy patients | oral, 410 mg twice daily, dose | grade ≥3 lymphopenia | 0% |
| NCCCC[C@@H]1NC(=O)[C@@H](Cc2c[nH]c3ccccc23)NC(=O)[C@H](c2ccccc2)NC(=O)[C@@H]2C[C@@H](OC(=O)NCCN)CN2C(=O)[C@H](Cc2ccccc2)NC(=O)[C@H](Cc2ccc(OCc3ccccc3)cc2)NC1=O | – | healthy human volunteers | 600 µg twice daily | subjects with abdominal discomfort | 9% |
| O=C(O)CCCOc1ccc(F)cc1-c1cc(-c2ccccc2C(F)(F)F)n(-c2ccccc2)n1 | refers to: γ-glb | Crl:CD(SD) rats, female, serum | iv, 25 µg/kg, 14 days | serum protein fraction | 6.3 ± 2.3% |
| COc1ccc(-c2c(-c3ccc(C#N)c(F)c3)nc(N3CCC(N)CC3)n(C)c2=O)cc1F | refers to: Constipation | neuroendocrine neoplasm patients | oral, 60 mg, any grade, dose expansion | treatment-related adverse event incidence | 6% |
| C[C@]1(CO)Cc2ncn(-c3ccc(C#N)c(Cl)c3)c2C(=O)O1 | – | human, plasma | 10 mg, first dose fasted | tmax | 0.5 h |
| CC(C)(c1ccccc1)c1cc(-n2nc3ccccc3n2)c(O)c(C(C)(C)c2ccccc2)c1 | exposure assessment | human, age 11-16 years | sunscreen | mean daily dermal uptake | 0.42 ng/kg body weight/day |
| CC[C@H](C)[C@H](NC(=O)[C@H](Cc1ccccc1)NC(=O)[C@H](CCC(=O)O)NC(=O)[C@H](CCCNC(=N)N)NC(=O)[C@H](C)NC(=O)[C@H](C)NC(=O)[C@H](CCC(N)=O)NC(=O)[C@H](CCC(=O)O)NC(=O)[C@H](CCC(=O)O)NC(=O)[C@H](CC(C)C)NC(=O)[C@H](Cc1ccc(O)cc1)NC(=O)[C@H](CO)NC(=O)[C@H](CO)NC(=O)[C@@H](NC(=O)[C@H](CC(=O)O)NC(=O)[C@H](CO)NC(=O)[C@@H](NC(=O)[C@H](Cc1ccccc1)NC(=O)[C@@H](NC(=O)CNC(=O)[C@H](CCC(=O)O)NC(=O)[C@H](C)NC(=O)CCc1cnc[nH]1)[C@@H](C)O)[C@@H](C)O)C(C)C)C(=O)N[C@@H](C)C(=O)N[C@@H](Cc1c[nH]c2ccccc12)C(=O)N[C@@H](CC(C)C)C(=O)N[C@H](C(=O)N[C@@H](CCCNC(=N)N)C(=O)NCC(=O)N[C@@H](CCCNC(=N)N)C(=O)N[C@@H](CCCCNC(=O)COCCOCCNC(=O)COCCOCCNC(=O)CC[C@H](NC(=O)CCCCCCCCCCCCCCCCC(=O)O)C(=O)O)C(=O)NCC(=O)NCC(=O)N[C@@H](CO)C(=O)N[C@@H](CCCCNC(=O)[C@H](CCCCNc1c(NCCCCCN(O)C(=O)CCC(=O)NCCCCCN(O)C(=O)CCC(=O)NCCCCCN(O)C(C)=O)c(=O)c1=O)Nc1c(NCCCCCN(O)C(=O)CCC(=O)NCCCCCN(O)C(=O)CCC(=O)NCCCCCN(O)C(C)=O)c(=O)c1=O)C(=O)O)C(C)C [zirconium-89 labelled] | ex vivo gamma counting | male Sprague-Dawley rats, muscle | intravenous, 1 nmol, 24 h | tissue uptake | 0.082 %ID/g |
| CC1(C)[C@H](C=C(Cl)Cl)[C@H]1C(=O)OCc1cccc(Oc2ccccc2)c1 | refers to: CYP1A2 | human, age 5 years, recombinant human CYP1A2 | 0.1 µM | enzyme contribution to clearance | 0.07% |
| CN1CC[C@@H](c2c(O)cc(O)c3c(=O)cc(-c4ccc(C(F)(F)F)cc4Cl)oc23)[C@@H]1CO | refers to: Anorexia | B-cell malignancies | oral, 200 mg, intermittent dosing | patients with adverse event | 0% |

Repeated from above:
| SMILES | test | system | conditions | endpoint | value |
| --- | --- | --- | --- | --- | --- |
| COc1cc2c(Oc3ccc4[nH]c(C)cc4c3F)ccnc2cc1OCC1(N)CC1 | – | paediatric refractory sarcoma patients | 12 mg | ALP elevation incidence | 45.5% |
| COc1ncccc1-c1cnn2ccc(N3CCN(C(=O)OC(C)C)CC3)nc12 | – | mouse, open field test, plasma | oral, 10 mg/kg, 60 min | drug concentration | 3.5 µM |
| C=CC(=O)N1CC[C@H](n2nc(C#Cc3cc(OC)cc(OC)c3)c3c(N)ncnc32)C1 | – | patients with advanced solid tumours | oral, dose not given, Stomatitis, any grade, QD, together with: phosphate-binding therapy | adverse drug reaction incidence | 12.5% |
